Measured values gathered from unrelated publications.
Parts stem from different laboratories: compare values within a part only.
Sequence of UniProt P31751 (whole entry, looked up): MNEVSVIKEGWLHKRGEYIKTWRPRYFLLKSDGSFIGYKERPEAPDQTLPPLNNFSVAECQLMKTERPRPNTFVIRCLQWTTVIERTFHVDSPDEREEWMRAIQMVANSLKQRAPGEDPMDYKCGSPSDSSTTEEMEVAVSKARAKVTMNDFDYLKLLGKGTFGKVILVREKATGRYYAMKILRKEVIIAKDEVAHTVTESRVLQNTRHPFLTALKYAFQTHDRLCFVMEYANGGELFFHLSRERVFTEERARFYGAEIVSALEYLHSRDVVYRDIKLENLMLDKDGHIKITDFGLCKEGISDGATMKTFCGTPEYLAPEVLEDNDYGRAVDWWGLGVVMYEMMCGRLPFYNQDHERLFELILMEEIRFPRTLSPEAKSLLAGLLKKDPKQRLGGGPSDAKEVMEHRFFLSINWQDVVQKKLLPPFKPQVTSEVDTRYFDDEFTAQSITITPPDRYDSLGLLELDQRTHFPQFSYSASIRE
Sequence of UniProt Q9Y6R4 (whole entry, looked up): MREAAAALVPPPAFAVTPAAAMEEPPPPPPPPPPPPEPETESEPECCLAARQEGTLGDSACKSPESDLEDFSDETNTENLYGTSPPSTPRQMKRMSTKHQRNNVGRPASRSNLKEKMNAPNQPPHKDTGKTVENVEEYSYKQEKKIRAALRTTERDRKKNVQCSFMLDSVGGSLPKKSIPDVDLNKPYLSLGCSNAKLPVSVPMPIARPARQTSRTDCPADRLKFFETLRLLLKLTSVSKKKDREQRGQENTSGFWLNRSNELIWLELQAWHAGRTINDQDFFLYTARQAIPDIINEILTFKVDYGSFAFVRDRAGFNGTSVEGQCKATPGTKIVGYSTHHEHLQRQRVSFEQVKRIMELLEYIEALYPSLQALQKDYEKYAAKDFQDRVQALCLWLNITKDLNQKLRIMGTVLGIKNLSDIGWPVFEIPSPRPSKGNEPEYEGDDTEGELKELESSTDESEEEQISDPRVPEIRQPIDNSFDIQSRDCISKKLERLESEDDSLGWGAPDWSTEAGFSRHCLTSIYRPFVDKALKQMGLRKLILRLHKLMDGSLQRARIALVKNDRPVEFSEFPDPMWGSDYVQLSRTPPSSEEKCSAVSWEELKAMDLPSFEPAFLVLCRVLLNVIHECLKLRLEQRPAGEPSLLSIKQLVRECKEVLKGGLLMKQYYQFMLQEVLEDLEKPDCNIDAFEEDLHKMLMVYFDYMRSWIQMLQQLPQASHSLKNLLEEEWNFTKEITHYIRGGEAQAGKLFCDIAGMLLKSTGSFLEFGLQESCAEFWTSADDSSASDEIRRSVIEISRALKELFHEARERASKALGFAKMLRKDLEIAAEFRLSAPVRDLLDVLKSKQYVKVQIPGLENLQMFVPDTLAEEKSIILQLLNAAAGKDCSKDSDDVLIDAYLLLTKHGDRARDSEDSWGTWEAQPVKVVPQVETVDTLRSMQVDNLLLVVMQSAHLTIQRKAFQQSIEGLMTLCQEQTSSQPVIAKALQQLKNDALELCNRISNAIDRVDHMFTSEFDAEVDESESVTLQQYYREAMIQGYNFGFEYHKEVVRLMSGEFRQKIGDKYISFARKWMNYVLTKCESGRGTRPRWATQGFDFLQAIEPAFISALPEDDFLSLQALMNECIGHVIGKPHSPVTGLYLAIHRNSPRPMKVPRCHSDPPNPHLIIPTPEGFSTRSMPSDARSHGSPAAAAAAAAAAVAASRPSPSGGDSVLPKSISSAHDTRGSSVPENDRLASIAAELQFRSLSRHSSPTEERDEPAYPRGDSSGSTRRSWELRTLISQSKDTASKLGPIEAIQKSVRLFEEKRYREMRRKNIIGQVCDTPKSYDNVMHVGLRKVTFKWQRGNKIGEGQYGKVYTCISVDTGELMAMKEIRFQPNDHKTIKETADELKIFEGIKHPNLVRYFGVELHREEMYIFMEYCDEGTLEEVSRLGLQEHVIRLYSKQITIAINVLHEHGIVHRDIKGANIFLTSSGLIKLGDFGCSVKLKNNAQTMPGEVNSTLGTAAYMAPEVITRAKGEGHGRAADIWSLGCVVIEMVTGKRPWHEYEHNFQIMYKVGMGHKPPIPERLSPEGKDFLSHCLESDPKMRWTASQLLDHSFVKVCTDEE
Sequence of UniProt Q9UL54 (whole entry, looked up): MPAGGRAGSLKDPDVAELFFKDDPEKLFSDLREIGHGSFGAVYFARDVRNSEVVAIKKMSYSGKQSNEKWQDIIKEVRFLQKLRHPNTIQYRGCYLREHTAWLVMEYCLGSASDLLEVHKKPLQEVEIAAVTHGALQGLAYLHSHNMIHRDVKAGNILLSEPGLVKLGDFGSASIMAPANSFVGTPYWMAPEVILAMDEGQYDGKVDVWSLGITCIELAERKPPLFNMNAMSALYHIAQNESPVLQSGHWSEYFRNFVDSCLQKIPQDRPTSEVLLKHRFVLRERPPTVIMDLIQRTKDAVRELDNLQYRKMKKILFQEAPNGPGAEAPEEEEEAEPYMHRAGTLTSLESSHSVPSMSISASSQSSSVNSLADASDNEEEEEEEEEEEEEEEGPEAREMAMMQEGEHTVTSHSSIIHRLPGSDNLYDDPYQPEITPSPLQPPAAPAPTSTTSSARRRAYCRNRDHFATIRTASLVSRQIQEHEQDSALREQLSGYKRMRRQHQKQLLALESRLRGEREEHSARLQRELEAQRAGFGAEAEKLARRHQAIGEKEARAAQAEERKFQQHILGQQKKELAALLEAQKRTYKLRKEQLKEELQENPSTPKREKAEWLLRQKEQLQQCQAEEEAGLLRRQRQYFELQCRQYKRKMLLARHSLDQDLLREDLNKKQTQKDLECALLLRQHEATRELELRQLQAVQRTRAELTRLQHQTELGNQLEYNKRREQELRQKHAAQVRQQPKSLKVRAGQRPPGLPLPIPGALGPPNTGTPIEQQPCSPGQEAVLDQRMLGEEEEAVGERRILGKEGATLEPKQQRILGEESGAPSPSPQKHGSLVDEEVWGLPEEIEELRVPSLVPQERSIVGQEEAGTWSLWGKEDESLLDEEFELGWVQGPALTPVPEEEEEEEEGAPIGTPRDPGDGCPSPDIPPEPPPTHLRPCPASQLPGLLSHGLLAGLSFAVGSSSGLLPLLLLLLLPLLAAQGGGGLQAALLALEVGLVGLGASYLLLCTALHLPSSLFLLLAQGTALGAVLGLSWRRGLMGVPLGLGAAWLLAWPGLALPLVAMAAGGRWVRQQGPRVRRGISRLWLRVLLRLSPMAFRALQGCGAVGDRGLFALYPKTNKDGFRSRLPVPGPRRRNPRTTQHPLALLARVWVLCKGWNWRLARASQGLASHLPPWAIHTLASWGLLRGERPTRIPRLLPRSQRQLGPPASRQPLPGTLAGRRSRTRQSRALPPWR
Sequence of UniProt P53667 (whole entry, looked up): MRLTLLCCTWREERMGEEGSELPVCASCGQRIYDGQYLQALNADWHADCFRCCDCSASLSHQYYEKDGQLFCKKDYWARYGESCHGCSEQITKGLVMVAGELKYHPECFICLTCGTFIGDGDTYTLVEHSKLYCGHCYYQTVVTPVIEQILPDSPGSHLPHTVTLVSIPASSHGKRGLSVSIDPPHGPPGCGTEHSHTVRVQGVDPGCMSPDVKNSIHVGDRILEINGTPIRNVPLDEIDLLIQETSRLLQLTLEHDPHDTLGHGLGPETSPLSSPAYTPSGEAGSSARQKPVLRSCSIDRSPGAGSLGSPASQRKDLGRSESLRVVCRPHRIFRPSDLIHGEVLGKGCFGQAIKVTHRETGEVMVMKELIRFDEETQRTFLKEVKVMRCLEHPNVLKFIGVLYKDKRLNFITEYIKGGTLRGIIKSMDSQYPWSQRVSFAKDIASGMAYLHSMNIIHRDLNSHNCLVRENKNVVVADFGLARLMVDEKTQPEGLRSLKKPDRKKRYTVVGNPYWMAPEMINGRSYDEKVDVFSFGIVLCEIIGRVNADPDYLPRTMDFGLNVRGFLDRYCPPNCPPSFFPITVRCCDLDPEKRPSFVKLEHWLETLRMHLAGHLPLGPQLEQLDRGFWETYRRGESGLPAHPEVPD
Sequence of UniProt P53350 (whole entry, looked up): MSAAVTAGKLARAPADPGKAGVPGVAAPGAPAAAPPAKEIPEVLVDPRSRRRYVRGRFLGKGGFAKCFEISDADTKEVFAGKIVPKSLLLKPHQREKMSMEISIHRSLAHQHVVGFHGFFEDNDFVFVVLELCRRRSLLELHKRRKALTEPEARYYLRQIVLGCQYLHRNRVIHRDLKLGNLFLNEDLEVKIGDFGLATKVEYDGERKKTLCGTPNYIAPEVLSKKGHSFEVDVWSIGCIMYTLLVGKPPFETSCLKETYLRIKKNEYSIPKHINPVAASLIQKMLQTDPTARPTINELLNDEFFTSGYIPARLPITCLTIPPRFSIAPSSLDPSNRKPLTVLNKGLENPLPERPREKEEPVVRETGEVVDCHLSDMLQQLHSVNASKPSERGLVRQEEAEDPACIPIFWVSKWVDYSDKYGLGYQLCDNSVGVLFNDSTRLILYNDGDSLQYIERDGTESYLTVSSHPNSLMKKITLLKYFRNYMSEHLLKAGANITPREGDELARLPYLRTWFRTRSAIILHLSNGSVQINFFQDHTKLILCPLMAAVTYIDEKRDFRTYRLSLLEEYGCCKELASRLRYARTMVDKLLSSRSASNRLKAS
Sequence of UniProt Q13163 (whole entry, looked up): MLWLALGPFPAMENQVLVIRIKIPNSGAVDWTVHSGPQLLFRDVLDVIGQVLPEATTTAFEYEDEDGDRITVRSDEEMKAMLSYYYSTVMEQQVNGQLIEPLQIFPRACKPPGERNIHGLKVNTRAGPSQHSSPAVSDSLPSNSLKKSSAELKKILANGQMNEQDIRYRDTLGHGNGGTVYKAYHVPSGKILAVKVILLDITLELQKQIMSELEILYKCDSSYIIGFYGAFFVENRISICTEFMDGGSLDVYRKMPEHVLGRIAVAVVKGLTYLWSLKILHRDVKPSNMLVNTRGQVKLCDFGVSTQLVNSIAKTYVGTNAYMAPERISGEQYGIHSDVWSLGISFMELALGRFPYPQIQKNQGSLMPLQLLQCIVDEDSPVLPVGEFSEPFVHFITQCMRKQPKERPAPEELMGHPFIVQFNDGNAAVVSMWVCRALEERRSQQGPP

Sample 1
Cell line: A-375
Concentration: 100 µM
Time: 36 h
`Nc1ncnc2c1ncn2[C@@H]1O[C@H](CO)[C@@H](O)[C@@H]1O` has a viability of 57.2%.
For `CC(=O)O[C@@]12CO[C@@H]1C[C@H](O)[C@@]1(C)C(=O)[C@H](O)C3=C(C)[C@@H](OC(=O)[C@H](O)[C@@H](NC(=O)OC(C)(C)C)c4ccccc4)C[C@@](O)([C@@H](OC(=O)c4ccccc4)[C@H]21)C3(C)C`, the viability was 24.6%.
`CO[C@H]1/C=C/O[C@@]2(C)Oc3c(C)c(O)c4c(O)c(c(/C=N/N5CCN(C6CCCC6)CC5)c(O)c4c3C2=O)NC(=O)/C(C)=C\C=C\[C@H](C)[C@H](O)[C@@H](C)[C@@H](O)[C@@H](C)[C@H](OC(C)=O)[C@@H]1C` gave a viability of 35%.
For `Nc1nc(CC(=O)Nc2ccc(CCNC[C@H](O)c3ccccc3)cc2)cs1`, the viability was 95.9%.

Sample 2
Compound: Cc1ccc(NC(=O)c2ccnc(C(F)(F)F)c2)cc1-c1cc(OCCO)nc(N2CCOCC2)c1
Observed: binding
Concentration: 1 µM
For CSNK1A1L (Homo sapiens, UniProt Q8N752): remaining binding read 100%.
MAP2K5 (Homo sapiens, UniProt Q13163); competition with immobilised ligand — remaining binding: 95%.
The remaining binding was 92% (LIM domain kinase 1 (LIMK1, Homo sapiens, UniProt P53667); competition with immobilised ligand).
For TAOK2 (Homo sapiens, UniProt Q9UL54); competition with immobilised ligand: remaining binding read 80%.

Sample 3
Organism: Sarcocystis neurona
Observed: parasite growth
Concentration: 10 µM
Setting: secondary screen
The inhibition of `CC(=O)NC[C@H]1CN(c2ccc(N3CCOCC3)c(F)c2)C(=O)O1` is reported as 7.1%.
For `CC1(C)S[C@@H]2[C@H](NC(=O)Cc3ccccc3)C(=O)N2[C@H]1C(=O)[O-].[K+]`, the inhibition was -42.3%.
For `C[C@@H](O)[C@H]1C(=O)N2C(C(=O)O)=C(S[C@@H]3CN[C@H](C(=O)N(C)C)C3)[C@H](C)[C@H]12`, the inhibition was -57.8%.
`Cc1onc(-c2c(Cl)cccc2Cl)c1C(=O)N[C@@H]1C(=O)N2[C@@H]1SC(C)(C)[C@@H]2C(=O)O` has an inhibition of -31.1%.

Sample 4
SMILES: CN1CCN(c2cnc3c(C4CCN(C(=O)c5ccc(OC(F)(F)F)cc5N)CC4)ncnc3c2)CC1
Observed: cell-free assay
Method: competition with immobilised ligand
Concentration: 1 µM
The remaining binding was 97% (BMP2K (Homo sapiens, UniProt Q9NSY1)).
For Aurora kinase C (AURKC, Homo sapiens, UniProt Q9UQB9): remaining binding read 67%.
MAP3K15 (Homo sapiens, UniProt Q6ZN16) — remaining binding: 95%.
The remaining binding was 100% (Ribosomal protein S6 kinase alpha-6, C-terminal kinase domain (RPS6KA6, Homo sapiens, UniProt Q9UK32)).
For NEK3 (Homo sapiens, UniProt P51956): remaining binding read 97%.
It gave 100% for remaining binding (STK16 (Homo sapiens, UniProt O75716)).
FGFR1 (Homo sapiens, UniProt P11362) — remaining binding: 100%.
AKT2 (Homo sapiens, UniProt P31751) — remaining binding: 100%.
It gave 84% for remaining binding (EGFR (Homo sapiens, UniProt P00533, T790M)).
For PRKD3 (Homo sapiens, UniProt O94806): remaining binding read 100%.
The remaining binding was 85% (MELK (Homo sapiens, UniProt Q14680)).
It gave 100% for remaining binding (EGFR (Homo sapiens, UniProt P00533, L858R)).
MAP3K19 (Homo sapiens, UniProt Q56UN5) — remaining binding: 83%.
PLK1 (Homo sapiens, UniProt P53350) — remaining binding: 93%.
It gave 93% for remaining binding (FLT3 (Homo sapiens, UniProt P36888, D835V/ITD)).
For MAP3K1 (Homo sapiens, UniProt Q13233): remaining binding read 100%.
The remaining binding was 89% (DMPK (Homo sapiens, UniProt Q09013)).
WNK3 (Homo sapiens, UniProt Q9BYP7) — remaining binding: 100%.
The remaining binding was 95% (MAP3K4 (Homo sapiens, UniProt Q9Y6R4)).

Sample 5
Cell line: mouse MPNST tumor cells
Method: high-content nuclear imaging
Item: cell number
Concentration: 10 µM
Time: 12 h
Setting: mean of 2 replicates
Reference: plate mean
Direction: higher = more cells
`Nc1ncnc2c1cnn2-c1ccccc1` gave a nuclei count of 0.0345 z-score.
With `Oc1ccc(-c2nc3cc(O)cc(Br)c3o2)cc1` the nuclei count was 3.27 z-score.
The nuclei count of `CCCCc1ccc2[nH]c(NC(=O)OC)nc2c1` is reported as -3.23 z-score.

Sample 6
Species: human
Medium: microsomes or S9
Concentration: 2 µM
Time: 0.5 h
For `Brc1ccccc1Cn1c(-c2ccc(Oc3ccccc3)cc2)cn2ncnc12`, the remaining compound was 47.7%.
For `CCS(=O)(=O)c1ccc(Cc2ccc(S(=O)(=O)CC)cc2)cc1`, the remaining compound was 89.5%.
`Fc1ccccc1C(c1nnc(-c2ccccc2)o1)N1CCc2ccccc2C1` (stereo not drawn) has a remaining compound of 16.8%.
The remaining compound of `COc1cc(=O)n(C)cc1C(=O)Nc1cc(C)nc2ccccc12` is reported as > 99%.

Further values, each from its own experiment
`CN(C(=O)c1ccn2ncc(-c3ccc(C(N)=O)cc3)c2c1)c1ccc(C#N)cn1`: “faecal oocyst shedding” 6.9 log oocysts/g faeces (Cryptosporidium parvum; qPCR; IFN-gamma knockout mouse; intravenous, 1 mg/kg).

For quick reference, copied from above (sample 6):
For `Brc1ccccc1Cn1c(-c2ccc(Oc3ccccc3)cc2)cn2ncnc12`, the remaining compound was 47.7%.
For `CCS(=O)(=O)c1ccc(Cc2ccc(S(=O)(=O)CC)cc2)cc1`, the remaining compound was 89.5%.
`Fc1ccccc1C(c1nnc(-c2ccccc2)o1)N1CCc2ccccc2C1` (stereo not drawn) has a remaining compound of 16.8%.
The remaining compound of `COc1cc(=O)n(C)cc1C(=O)Nc1cc(C)nc2ccccc12` is reported as > 99%.
